{"data": "Measurements of several laboratories", "note": "Each numbered part is a random draw from the data of one study; scales do not carry over between parts.", "chain of UniProt P23443 (whole entry, looked up)": "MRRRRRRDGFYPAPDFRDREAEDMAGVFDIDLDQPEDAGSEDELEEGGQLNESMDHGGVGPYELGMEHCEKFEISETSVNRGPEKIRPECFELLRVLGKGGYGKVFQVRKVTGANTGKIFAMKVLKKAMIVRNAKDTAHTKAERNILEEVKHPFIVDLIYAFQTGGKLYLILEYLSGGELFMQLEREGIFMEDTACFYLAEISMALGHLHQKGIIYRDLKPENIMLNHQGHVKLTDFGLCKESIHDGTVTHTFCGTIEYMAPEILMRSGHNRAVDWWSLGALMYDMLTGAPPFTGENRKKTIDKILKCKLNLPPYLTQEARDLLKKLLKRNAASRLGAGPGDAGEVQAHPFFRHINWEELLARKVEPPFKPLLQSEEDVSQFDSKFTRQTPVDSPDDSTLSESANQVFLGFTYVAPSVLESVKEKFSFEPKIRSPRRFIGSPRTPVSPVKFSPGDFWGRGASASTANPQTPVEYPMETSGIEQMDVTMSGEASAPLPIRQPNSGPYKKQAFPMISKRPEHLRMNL", "chain of UniProt O60285 (whole entry, looked up)": "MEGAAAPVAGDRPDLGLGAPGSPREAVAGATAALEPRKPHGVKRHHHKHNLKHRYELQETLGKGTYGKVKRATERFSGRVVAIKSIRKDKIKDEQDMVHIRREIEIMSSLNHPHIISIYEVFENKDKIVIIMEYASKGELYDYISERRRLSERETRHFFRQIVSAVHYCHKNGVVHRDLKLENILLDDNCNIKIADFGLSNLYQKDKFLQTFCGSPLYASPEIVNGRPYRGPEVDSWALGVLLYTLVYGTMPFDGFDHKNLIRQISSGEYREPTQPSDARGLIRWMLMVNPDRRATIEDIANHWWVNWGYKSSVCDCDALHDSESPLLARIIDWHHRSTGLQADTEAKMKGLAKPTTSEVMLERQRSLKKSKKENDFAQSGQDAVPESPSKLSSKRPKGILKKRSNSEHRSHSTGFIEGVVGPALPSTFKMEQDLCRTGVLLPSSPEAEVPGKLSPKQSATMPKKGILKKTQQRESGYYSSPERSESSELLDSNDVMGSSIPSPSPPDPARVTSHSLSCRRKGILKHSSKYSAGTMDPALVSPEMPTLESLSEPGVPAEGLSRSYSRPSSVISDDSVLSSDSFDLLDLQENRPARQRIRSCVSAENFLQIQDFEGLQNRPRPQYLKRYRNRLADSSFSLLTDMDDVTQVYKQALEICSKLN", "chain of UniProt Q9BVS4 (whole entry, looked up)": "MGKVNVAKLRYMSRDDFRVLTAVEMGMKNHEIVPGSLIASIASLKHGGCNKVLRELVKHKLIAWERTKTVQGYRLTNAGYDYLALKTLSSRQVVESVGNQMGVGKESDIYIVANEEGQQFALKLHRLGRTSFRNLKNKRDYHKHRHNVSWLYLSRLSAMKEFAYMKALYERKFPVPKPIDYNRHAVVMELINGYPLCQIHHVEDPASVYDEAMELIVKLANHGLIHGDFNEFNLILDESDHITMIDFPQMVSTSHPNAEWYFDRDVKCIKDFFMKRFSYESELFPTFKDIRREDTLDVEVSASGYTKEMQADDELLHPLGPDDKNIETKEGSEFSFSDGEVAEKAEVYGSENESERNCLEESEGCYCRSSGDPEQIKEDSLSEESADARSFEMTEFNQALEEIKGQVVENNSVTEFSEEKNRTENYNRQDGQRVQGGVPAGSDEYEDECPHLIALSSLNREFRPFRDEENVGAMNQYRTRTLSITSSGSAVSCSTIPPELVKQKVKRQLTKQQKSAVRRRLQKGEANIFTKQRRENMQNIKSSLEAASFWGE", "chain of UniProt Q9BYT3 (whole entry, looked up)": "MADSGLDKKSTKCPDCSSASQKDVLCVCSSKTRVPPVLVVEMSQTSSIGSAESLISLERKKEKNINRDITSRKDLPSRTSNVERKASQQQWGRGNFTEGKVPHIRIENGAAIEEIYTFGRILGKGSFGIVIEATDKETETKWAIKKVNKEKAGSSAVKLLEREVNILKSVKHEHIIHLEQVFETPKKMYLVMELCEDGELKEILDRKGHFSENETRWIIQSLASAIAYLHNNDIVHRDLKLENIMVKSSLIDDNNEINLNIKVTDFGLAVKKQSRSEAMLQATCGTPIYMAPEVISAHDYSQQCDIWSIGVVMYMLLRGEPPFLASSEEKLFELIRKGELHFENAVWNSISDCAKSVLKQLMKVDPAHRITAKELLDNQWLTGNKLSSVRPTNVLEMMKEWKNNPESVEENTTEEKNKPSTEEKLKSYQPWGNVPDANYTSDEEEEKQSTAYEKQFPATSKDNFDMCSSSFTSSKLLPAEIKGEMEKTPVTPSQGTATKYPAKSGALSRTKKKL", "chain of UniProt Q9P1W9 (whole entry, looked up)": "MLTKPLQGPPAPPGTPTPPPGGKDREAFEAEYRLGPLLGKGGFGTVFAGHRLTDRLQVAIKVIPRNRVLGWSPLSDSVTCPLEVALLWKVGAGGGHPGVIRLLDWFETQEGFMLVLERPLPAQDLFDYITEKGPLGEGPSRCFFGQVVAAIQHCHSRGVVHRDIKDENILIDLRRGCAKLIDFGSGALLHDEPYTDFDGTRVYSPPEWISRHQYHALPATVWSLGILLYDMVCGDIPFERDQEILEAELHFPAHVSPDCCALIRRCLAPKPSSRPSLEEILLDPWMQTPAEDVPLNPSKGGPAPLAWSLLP", "chain of UniProt Q15375 (whole entry, looked up)": "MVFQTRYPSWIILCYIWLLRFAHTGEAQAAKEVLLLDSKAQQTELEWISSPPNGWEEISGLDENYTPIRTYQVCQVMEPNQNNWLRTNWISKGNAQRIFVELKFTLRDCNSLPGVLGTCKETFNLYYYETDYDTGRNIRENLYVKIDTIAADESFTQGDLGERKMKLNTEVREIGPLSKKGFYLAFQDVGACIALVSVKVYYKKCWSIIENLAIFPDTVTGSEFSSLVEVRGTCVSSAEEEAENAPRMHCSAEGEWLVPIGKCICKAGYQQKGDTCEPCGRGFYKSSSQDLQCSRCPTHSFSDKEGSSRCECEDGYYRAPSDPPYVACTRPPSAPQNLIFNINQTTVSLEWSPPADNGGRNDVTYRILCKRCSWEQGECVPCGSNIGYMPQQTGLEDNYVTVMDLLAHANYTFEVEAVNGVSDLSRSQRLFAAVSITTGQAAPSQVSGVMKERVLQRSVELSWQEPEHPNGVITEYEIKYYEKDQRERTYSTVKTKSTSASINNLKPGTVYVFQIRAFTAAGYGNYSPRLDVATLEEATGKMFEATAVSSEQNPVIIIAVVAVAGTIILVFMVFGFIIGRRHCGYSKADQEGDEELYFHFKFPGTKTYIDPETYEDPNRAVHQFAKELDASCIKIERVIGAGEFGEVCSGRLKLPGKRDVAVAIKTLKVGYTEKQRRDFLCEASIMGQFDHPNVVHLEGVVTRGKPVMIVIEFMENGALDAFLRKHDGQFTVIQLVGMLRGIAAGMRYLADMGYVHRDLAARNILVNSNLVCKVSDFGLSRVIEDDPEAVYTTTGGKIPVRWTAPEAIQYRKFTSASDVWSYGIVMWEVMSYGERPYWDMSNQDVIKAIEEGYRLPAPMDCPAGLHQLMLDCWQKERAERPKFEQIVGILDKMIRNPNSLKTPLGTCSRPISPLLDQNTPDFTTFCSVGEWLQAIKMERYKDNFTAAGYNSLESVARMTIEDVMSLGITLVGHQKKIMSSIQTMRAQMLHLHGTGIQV", "chain of UniProt P07333 (whole entry, looked up)": "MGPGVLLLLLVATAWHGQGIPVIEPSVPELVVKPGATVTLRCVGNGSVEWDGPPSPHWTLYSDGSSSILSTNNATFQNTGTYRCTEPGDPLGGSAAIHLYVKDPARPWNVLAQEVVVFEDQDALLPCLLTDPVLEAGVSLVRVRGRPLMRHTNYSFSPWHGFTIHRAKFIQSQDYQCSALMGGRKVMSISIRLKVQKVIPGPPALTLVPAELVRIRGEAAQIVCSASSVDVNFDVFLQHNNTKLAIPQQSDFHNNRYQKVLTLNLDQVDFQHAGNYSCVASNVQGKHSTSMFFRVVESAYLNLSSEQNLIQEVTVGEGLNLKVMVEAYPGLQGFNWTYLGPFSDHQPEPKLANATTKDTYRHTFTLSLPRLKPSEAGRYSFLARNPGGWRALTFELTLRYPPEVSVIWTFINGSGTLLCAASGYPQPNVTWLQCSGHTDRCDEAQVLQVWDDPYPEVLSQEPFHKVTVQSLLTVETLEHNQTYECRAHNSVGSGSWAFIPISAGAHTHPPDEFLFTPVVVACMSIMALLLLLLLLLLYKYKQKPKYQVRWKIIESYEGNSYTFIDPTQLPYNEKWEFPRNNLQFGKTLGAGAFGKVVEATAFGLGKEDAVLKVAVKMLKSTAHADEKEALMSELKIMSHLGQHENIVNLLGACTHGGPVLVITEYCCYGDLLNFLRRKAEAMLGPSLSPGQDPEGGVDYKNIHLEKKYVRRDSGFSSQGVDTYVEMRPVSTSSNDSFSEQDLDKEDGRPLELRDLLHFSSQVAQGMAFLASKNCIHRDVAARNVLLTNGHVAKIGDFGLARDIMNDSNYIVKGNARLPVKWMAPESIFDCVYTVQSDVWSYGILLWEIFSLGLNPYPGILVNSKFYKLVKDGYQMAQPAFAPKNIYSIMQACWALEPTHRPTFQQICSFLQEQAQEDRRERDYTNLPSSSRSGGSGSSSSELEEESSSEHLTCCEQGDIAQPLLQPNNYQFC", "chain of UniProt Q8IY84 (whole entry, looked up)": "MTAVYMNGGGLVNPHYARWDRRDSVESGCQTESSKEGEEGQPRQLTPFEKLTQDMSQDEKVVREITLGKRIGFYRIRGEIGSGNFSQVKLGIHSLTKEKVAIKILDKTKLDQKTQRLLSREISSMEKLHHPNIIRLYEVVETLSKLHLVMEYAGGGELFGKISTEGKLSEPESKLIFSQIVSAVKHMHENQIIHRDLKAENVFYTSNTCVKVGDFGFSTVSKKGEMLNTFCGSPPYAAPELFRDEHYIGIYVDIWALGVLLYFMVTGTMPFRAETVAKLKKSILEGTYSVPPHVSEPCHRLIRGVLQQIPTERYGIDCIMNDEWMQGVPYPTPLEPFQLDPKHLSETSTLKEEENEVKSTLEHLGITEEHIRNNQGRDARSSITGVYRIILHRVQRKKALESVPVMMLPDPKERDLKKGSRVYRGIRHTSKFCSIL"}
{"data": "Sample 1", "Compound": "CN(C)C(=O)Cn1cc(-c2nc(C3(c4ccc(-c5cnc(N)nc5)cc4)CC3)no2)cn1", "effect on": "cell-free assay", "method": "competition with immobilised ligand", "concentration": "1 µM"}
{"target": "RIOK2 (Homo sapiens, UniProt Q9BVS4)", "remaining binding [%]": 76}
{"target": "BTK (Homo sapiens, UniProt Q06187)", "remaining binding [%]": 82}
{"target": "CDK16 (Homo sapiens, UniProt Q00536)", "remaining binding [%]": 80}
{"target": "MAP3K13 (Homo sapiens, UniProt O43283)", "remaining binding [%]": 100}
{"target": "PIM3 (Homo sapiens, UniProt Q86V86)", "remaining binding [%]": 100}
{"target": "RET (Homo sapiens, UniProt P07949, V804L)", "remaining binding [%]": 100}
{"target": "STK33 (Homo sapiens, UniProt Q9BYT3)", "remaining binding [%]": 99}
{"target": "PRKD1 (Homo sapiens, UniProt Q15139)", "remaining binding [%]": 100}
{"target": "CDK3 (Homo sapiens, UniProt Q00526)", "remaining binding [%]": 100}
{"target": "ERBB2 (Homo sapiens, UniProt P04626)", "remaining binding [%]": 80}
{"target": "NEK9 (Homo sapiens, UniProt Q8TD19)", "remaining binding [%]": 100}
{"target": "NIM1K (Homo sapiens, UniProt Q8IY84)", "remaining binding [%]": 83}
{"target": "MAP2K5 (Homo sapiens, UniProt Q13163)", "remaining binding [%]": 72}
{"target": "IRAK4 (Homo sapiens, UniProt Q9NWZ3)", "remaining binding [%]": 84}
{"target": "PRKCH (Homo sapiens, UniProt P24723)", "remaining binding [%]": 91}
{"target": "MAST1 (Homo sapiens, UniProt Q9Y2H9)", "remaining binding [%]": 100}
{"data": "Sample 2", "Structure (SMILES)": "CC(C)n1cnc(-c2ccc(F)cc2)c1-c1ncc(C(=O)Nc2ccc(N3CCN(C)CC3)cc2)[nH]1", "method": "Phase 2a trial", "species": "idiopathic pulmonary fibrosis patients"}
{"measured": "reticulocyte count increased", "dose": "60 mg once daily", "notes": "grade 2 maximum intensity", "patients with adverse events [%]": 0}
{"measured": "eye disorders (SOC)", "dose": "dose not given", "notes": "grade 4 maximum intensity, all arms", "patients with adverse events [%]": 0}
{"measured": "infections and infestations", "dose": "30 mg once daily", "notes": "grade 4 maximum intensity", "patients with adverse events [%]": 0}
{"measured": "infections and infestations", "dose": "dose not given", "notes": "grade 4 maximum intensity, all arms", "patients with adverse events [%]": 0}
{"measured": "oral herpes", "route": "oral", "dose": "30 mg once daily", "notes": "grade 3 maximum intensity", "patients with adverse events [%]": 0}
{"measured": "blood bilirubin increased", "dose": "dose not given", "notes": "grade 3 maximum intensity, all arms", "patients with adverse events [%]": 0}
{"measured": "bile acids increased", "dose": "60 mg once daily", "notes": "grade 3 maximum intensity", "patients with adverse events [%]": 0}
{"measured": "blood alkaline phosphatase increased", "dose": "60 mg once daily", "notes": "grade 2 maximum intensity", "patients with adverse events [%]": 0}
{"measured": "oral herpes", "route": "oral", "dose": "dose not given", "notes": "grade 3 maximum intensity, all arms", "patients with adverse events [%]": 0}
{"data": "Sample 3", "organism": "Sarcocystis neurona", "effect on": "parasite growth", "concentration": "10 µM", "time": "96 h"}
{"Compound": "Nc1nc(Cl)nc2c1ncn2[C@H]1C[C@H](O)[C@@H](CO)O1", "inhibition [%]": -13.7}
{"Compound": "CN(C)CCOC(c1ccc(Cl)cc1)c1ccccn1 (centres unmarked)", "inhibition [%]": -8}
{"Compound": "Cc1cccc(C)c1NC(=O)C1CCCCN1C (centres unmarked)", "inhibition [%]": -7.3}
{"Compound": "CC(=O)Nc1nnc(S(N)(=O)=O)s1", "inhibition [%]": -1.9}
{"Compound": "C[C@]12C[C@H](O)[C@H]3[C@@H](CCC4=CC(=O)CC[C@@]43C)[C@@H]1CC[C@@H]2C(=O)CO", "inhibition [%]": -3.8}
{"Compound": "OCc1cccnc1", "inhibition [%]": -19.1}
{"Compound": "C#C[C@]1(O)CC[C@H]2[C@@H]3CCC4=CC(=O)CC[C@@H]4[C@H]3CC[C@@]21C", "inhibition [%]": -4.9}
{"Compound": "Cc1ccc(O)c([C@H](CCN(C(C)C)C(C)C)c2ccccc2)c1", "inhibition [%]": -7.9}
{"Compound": "CN(C)[C@@H]1C(O)=C(C(N)=O)C(=O)[C@@]2(O)C(O)=C3C(=O)c4c(O)cccc4[C@@](C)(O)[C@H]3C[C@@H]12", "inhibition [%]": -0.646}
{"Compound": "CCCC1O[C@@H]2C[C@H]3[C@@H]4CCC5=CC(=O)C=C[C@]5(C)[C@H]4[C@@H](O)C[C@]3(C)[C@]2(C(=O)CO)O1 (some centres unmarked)", "inhibition [%]": -19.3}
{"Compound": "Fc1ccc([C@@H]2CCNC[C@H]2COc2ccc3c(c2)OCO3)cc1", "inhibition [%]": -0.8}
{"Compound": "Cc1ncc([N+](=O)[O-])n1CC(O)CCl (centres unmarked)", "inhibition [%]": -7.4}
{"Compound": "CC(C)(C#N)c1cc(Cn2cncn2)cc(C(C)(C)C#N)c1", "inhibition [%]": -18.7}
{"data": "Sample 4", "SMILES": "CCCNC(=O)Nc1ccc(Oc2ncnc3cc(OC)c(OC)cc23)cc1Cl", "effect on": "enzyme activity", "mode": "inhibitor", "concentration": "0.5 µM", "relative to": "control"}
{"target": "EPHB2 (Homo sapiens, UniProt P29323)", "remaining activity [%]": 90.8}
{"target": "Aurora kinase C (AURKC, Homo sapiens, UniProt Q9UQB9)", "remaining activity [%]": 71.6}
{"target": "PAK2 (Homo sapiens, UniProt Q13177)", "remaining activity [%]": 81.5}
{"target": "EPHA7 (Homo sapiens, UniProt Q15375)", "remaining activity [%]": 86.3}
{"target": "CSF1R (Homo sapiens, UniProt P07333)", "remaining activity [%]": 51.1}
{"target": "RPS6KA1 (Homo sapiens, UniProt Q15418)", "remaining activity [%]": 92.3}
{"target": "NUAK1 (Homo sapiens, UniProt O60285)", "remaining activity [%]": 92.3}
{"target": "PIM2 (Homo sapiens, UniProt Q9P1W9)", "remaining activity [%]": 101}
{"target": "RPS6KB1 (Homo sapiens, UniProt P23443)", "remaining activity [%]": 90.6}
{"note": "For quick reference, copied from above (sample 2):"}
{"measured": "eye disorders (SOC)", "dose": "dose not given", "notes": "grade 4 maximum intensity, all arms", "patients with adverse events [%]": 0}
{"measured": "infections and infestations", "dose": "30 mg once daily", "notes": "grade 4 maximum intensity", "patients with adverse events [%]": 0}
{"measured": "infections and infestations", "dose": "dose not given", "notes": "grade 4 maximum intensity, all arms", "patients with adverse events [%]": 0}
{"measured": "oral herpes", "route": "oral", "dose": "30 mg once daily", "notes": "grade 3 maximum intensity", "patients with adverse events [%]": 0}
{"measured": "blood bilirubin increased", "dose": "dose not given", "notes": "grade 3 maximum intensity, all arms", "patients with adverse events [%]": 0}
{"measured": "bile acids increased", "dose": "60 mg once daily", "notes": "grade 3 maximum intensity", "patients with adverse events [%]": 0}
{"measured": "blood alkaline phosphatase increased", "dose": "60 mg once daily", "notes": "grade 2 maximum intensity", "patients with adverse events [%]": 0}
{"measured": "oral herpes", "route": "oral", "dose": "dose not given", "notes": "grade 3 maximum intensity, all arms", "patients with adverse events [%]": 0}
